Published values gathered from unrelated publications.
Every numbered part comes from another study and shows a few of its results, in no order.

Block 1 — technique: RNA Bind-n-Seq; form: RNA; matrix: in vitro; concentration: 365 nM; reference: no-protein control; direction: higher = stronger binding; quantity: RBNS enrichment (R)
Target: RNA binding protein fox-1 homolog 2, RRM domain, GST-SBP tag (RBFOX2, Homo sapiens, UniProt O43251-10, residues 100-194)
Notes: natural RNA segment, single round, ends assumed
Target sequence (chain): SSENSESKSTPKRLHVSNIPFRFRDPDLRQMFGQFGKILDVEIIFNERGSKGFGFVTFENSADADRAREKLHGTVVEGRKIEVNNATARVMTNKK
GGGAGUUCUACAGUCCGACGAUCAGGAUGAAAUAAACCUAGAAGUGGCAGAACACUGGAUUUGUGUGUGUGGCGCUUUAGGGUGCUGGACUGUAUGGCUGAGGGCUGGUUGGGUUCCUCUAUUGGCUCUGCUCUGGAAUUCUCGGGUGCCAA: 0.714
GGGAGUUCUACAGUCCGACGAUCCGAGAAGACUCUCCUGCUCAGCUCUGAUGAUGAAUUCUAGGUGCGGGCUGCAGUGGCGGAAGUGCUGGCGCCAUAGCCACGGUCAGGCUGUGCCCCACCUCCAGCCUCACUGGAAUUCUCGGGUGCCAA: 0.273
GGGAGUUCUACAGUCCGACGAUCUCUGGGACUCAGUCAGAGCGCUUUGGCUGAAUGAGGGGUGGAACCGAGGGAAGAAGGUGCGUCGGAGUGGCAGAUGCAGGAAAUGAGCUGUCUAUUAGCCUUGCCUGCCCUGGAAUUCUCGGGUGCCAA: 0.658
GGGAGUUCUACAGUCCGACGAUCGGCUCACGUGGCCCAGGCUGGUGCGCCCGCUGUCUCGGUAAGGGGCGGGUUGGUGUGUUUUCCCCUUGUGUACCAGAGCACAUUCCUUAGGGGACGGCUUUGGGGGUCCCUGGAAUUCUCGGGUGCCAA: 0.247
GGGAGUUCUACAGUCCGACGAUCUGAGCAGUGACCAUGCAGCCACACCCAAUCACACAAGAGUCAGCAGAAGCCAGAGUCACCGAAGGAUUCUCCUUUUCCGACGCGCUUGGAGUGAACUACACAUAGACCACUGGAAUUCUCGGGUGCCAA: 0.365
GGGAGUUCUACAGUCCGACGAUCAAACUUAGAAGAAUUCUAUGUUCUGAAAUGCACACUUUUAGAAUGUUUUUCUUUGAAAACAGGCUAAUAGUUUUUUCUUUUUUUGACAAAGUUUCAGCUCCUCUUUAAAGUGGAAUUCUCGGGUGCCAA: 0.504
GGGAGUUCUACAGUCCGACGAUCGUACUACAUGUUACAUGCUGCAUACUGUAUGUUACACACUGCAUACUAUGUGUUAUACACUGCAUACACAUACUUCCUUUACCCAGAGAAAAGAAAUAAAAUUGAACCAAUGGAAUUCUCGGGUGCCAA: 1.66
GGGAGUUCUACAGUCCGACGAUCUGAUGCUGUAUUUUCACAACUCUGAGGAAACGUCUGGGAACUCCUAGGGGUAGGCGAUUGACUGCCUGAUUUUAGAGCAGGGAGCCCGGCCCCUUCUUUUGUCUUCCUGGUGGAAUUCUCGGGUGCCAA: 0.302
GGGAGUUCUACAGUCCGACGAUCGAUUAUAGUCUUGAGGUUCAUGUGAAGCCAGUGGUGUUAACUUACUUUGAUUUCCUUGUUCAGGUCAGGGCCUGGAACGCCUGUGCGGGGAGGUCACUCAAUUCAAAAUUUGGAAUUCUCGGGUGCCAA: 0.699
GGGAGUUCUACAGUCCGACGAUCUAGAUCCUGUAGUAAACAUGUCCCAUCUAUGACUGCCUUGAUUAUAGAGGCAAGGGGUUACUGUGUGAAUCCCGGCUCCCUUCCACAUGCUGUACACCCUAUCCAUCUGUUGGAAUUCUCGGGUGCCAA: 0.84
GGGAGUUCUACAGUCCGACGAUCAAUUAUUUUCUAAUCCCUUUCUGAGUACUCUGGGGCCCUGCAUUUAUGAGGCACCUACCUUCAUUUUGCUAACGCUUAUUCUGAAUAAAAGUUUUUGAUUCCUUAAAGACUGGAAUUCUCGGGUGCCAA: 0.344
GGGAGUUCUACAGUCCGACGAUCAGUAUACAGACUACUUUAAAGAUUUCCAAAUCCCCUAAUUUACCCCACAACAGCAUGUAAUUUUAGCCAAGAUAUGUCCUGUUACUAAGUAUCUCCCAAUGCUUUAGUAAUGGAAUUCUCGGGUGCCAA: 11.2

Block 2 — technique: universal PBM; form: double-stranded DNA, one strand shown; matrix: in vitro; concentration: 600 nM; direction: higher = stronger binding; quantity: E-score
Target: Sal-like protein 4, full length isoform A (SALL4, Homo sapiens, UniProt Q9UJQ4, residues 1-1053)
Chain of UniProt Q9UJQ4 (whole entry, looked up): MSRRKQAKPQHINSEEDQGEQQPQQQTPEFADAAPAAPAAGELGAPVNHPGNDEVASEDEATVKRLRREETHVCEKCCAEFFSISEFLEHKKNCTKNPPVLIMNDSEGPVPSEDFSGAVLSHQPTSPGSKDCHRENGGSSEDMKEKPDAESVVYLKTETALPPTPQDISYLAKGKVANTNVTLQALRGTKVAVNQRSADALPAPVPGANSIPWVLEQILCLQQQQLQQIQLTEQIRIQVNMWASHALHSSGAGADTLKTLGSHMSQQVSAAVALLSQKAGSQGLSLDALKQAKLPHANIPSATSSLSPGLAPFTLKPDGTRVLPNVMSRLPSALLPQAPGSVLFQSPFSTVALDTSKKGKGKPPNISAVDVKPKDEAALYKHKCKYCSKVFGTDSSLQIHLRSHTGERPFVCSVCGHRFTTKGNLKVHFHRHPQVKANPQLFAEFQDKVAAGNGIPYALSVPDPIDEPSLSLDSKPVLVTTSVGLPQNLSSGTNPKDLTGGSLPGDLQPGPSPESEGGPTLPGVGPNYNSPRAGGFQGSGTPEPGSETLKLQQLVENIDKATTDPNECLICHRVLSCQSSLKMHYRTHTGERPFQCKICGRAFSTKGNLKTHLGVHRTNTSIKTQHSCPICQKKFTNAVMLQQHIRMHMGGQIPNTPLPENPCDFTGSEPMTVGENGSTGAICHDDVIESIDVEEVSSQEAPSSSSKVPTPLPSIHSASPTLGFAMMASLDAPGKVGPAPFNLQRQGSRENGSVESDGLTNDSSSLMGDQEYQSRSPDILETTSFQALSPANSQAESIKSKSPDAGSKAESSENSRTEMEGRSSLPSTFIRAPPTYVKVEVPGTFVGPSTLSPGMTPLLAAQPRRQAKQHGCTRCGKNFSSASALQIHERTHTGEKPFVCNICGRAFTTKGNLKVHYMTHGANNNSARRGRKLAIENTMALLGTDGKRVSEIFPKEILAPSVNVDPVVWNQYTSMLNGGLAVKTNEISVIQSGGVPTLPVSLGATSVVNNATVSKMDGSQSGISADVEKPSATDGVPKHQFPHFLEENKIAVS
Notes: 8-mer, flanks averaged, mean of replicates
CCTGGTAG: -0.343
CTGTAGTC: -0.0431
CCTCACAA: -0.021
AAACCCGA: 0.143
CGTACAAC: -0.00421
ATCAGGTA: 0.181
AGGGGCCG: -0.347
GTCATCAA: 0.0579
AGCGGGGG: -0.299
ATGCGAGG: 0.0161
AAATGAAT: 0.369
ACTTGCAT: 0.0757
CACGAAGG: -0.116
AGTGACGA: 0.0898
ACCTGCTC: -0.0839
AGGTAACT: -0.0478
CATAATGC: 0.263
GGTCGTTA: -0.0937
CAAATAAG: 0.148
CTCCTCTA: -0.0477
GGTAAACA: 0.225
AGATTGAG: 0.167
CATTCACG: -0.113
ACAGCTTC: 0.0458
GATTTCCA: -0.0317

Block 3 — technique: protein binding microarray; form: double-stranded DNA, one strand shown; matrix: in vitro; concentration: not given; reference: not given; direction: higher = stronger binding; quantity: E-score
Target: Histone acetyltransferase KAT6A, both winged helices, GST fusion (KAT6A, Homo sapiens, UniProt Q92794, residues 1-181)
Notes: 8-mer, flanks averaged, mean of 2 arrays, mostly near background
Construct (chain): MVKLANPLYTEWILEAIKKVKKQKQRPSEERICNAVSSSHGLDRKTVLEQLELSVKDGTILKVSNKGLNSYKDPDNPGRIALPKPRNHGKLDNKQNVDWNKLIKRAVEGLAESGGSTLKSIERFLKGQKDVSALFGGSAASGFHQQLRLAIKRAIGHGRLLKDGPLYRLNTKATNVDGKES
CAGCAAGA: -0.196
ACCGACGT: 0.0617
AATCAGGG: -0.189
CCGGCTTA: 0.187
AGCGTAAA: 0.128
CTCAACGA: -0.0534
CAAAAGGG: -0.106
GGCGTATA: 0.174
GAACAGGC: 0.0094
CGCACAAG: 0.105
TACGGATA: 0.125
AGAACGCC: -0.0121
ACAAAAGT: -0.0749
CCCACGAG: -0.232
CCAGTGCA: -0.171
GGCTCATA: -0.0361
CTCAGAAG: -0.139
CAGCGTGA: -0.00679
AGGTTTTA: -0.0144
TGCAGGAA: -0.126
CTTGCTGA: -0.188

Block 4 — technique: protein-binding microarray; form: double-stranded DNA, one strand shown; matrix: in vitro; concentration: 940 nM top; notes: 60-bp whole probe; added: salmon DNA 0.4 mg/ml; reference: random background probes; direction: higher = stronger binding; quantity: fitted relative affinity; constant ends, left off below: GCCTAGCAC … GTCTTGATTCGCTTGACGCTGCTG
Target: Interferon regulatory factor 5, full length, phosphomimetic (IRF5, Homo sapiens, UniProt Q13568-2, residues 1-514, S451D/S453D/S456D/S462D)
TTAGGTATCGGGTTTCGGTTGGTGCTA: 8.55 z-score
GACGGTCTCCCACTGCTGACGTGCTAG: -0.0046 z-score
GACGGTCCCCTTATCCTGACGTGCTAG: 0.439 z-score
TTAGATTTCAGTTTCGCTTAGTGCTAG: 6.1 z-score
TTCCCTCTCCCCTCTTGTGCTGTGCTA: 0.87 z-score
TTAGGTTTCGACCATCGGTTAGTGCTA: 8.77 z-score
TCACTCGTGTTTTTCTCACTGTGCTAG: 0.763 z-score
TCAGAAATTCCTCTGAGACTGTGCTAG: -0.422 z-score
GACGGTTCCGGTTTCGGGAGGTGCTAG: 4.98 z-score
TTAGGGTTCGGTTTCGGTTAGTGCTAG: 8.4 z-score
GACGGACTGGACCATCGGGACGTGCTA: -0.772 z-score
TCATCCTTTGCTTTCTCACTGTGCTAG: 1.34 z-score
TTAGATATCACTCTCGATTAGTGCTAG: 3.34 z-score
TGGCTTTGCCTTTTGCTTTAGTGCTAG: -0.207 z-score
GACGGTTTAGGTATCGGGACGTGCTAG: 2.14 z-score
TCACGTCTCTATCAAAAACTGTGCTAG: 1.01 z-score
GCAACATTCACCATGGCTAGGTGCTAG: 0.02 z-score
TTAGGACTGCTTTTCCTGTAGTGCTAG: -0.276 z-score
GCCGGTATCCTACTGCTGACGTGCTAG: 0.0244 z-score
GACGGTATCGACTATTGGGACGTGCTA: 4.49 z-score
GATTCTCCTGCCTCAGCCTCGTGCTAG: 0.128 z-score
TCATTTTCCATTTTGTGACTGTGCTAG: 1.18 z-score
GACGGTTCCCTTTTCCTGAGGTGCTAG: 0.434 z-score
GACGATTTCGGTATCGAGACGTGCTAG: 3.9 z-score
TTATGTATCGACACTGGGTTAGTGCTA: 1.9 z-score

Block 5 — technique: RNA Bind-n-Seq; form: RNA; matrix: in vitro; concentration: 100 nM; reference: input RNA pool; direction: higher = stronger binding; quantity: bound/input enrichment
Target: RING finger protein unkempt homolog, zinc fingers 1-6, SBP tag (UNK, Homo sapiens, UniProt Q9C0B0, residues 30-357)
Chain of UniProt Q9C0B0 (30-357, looked up): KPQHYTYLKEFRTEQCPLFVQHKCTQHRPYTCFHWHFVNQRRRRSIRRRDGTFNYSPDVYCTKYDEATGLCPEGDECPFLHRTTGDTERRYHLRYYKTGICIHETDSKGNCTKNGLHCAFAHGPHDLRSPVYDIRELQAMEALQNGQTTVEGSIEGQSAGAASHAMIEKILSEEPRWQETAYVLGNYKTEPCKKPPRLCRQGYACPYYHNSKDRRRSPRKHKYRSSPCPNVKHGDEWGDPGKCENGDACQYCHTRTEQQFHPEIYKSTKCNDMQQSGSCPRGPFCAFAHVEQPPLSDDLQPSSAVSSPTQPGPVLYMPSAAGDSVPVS
Notes: RNA with constant flanks, vertebrate orthologous sites, ends assumed
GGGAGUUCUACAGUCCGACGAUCUAAUGCAAUGGUUGAAGGCUCUGAGCUCAAAAAGGUUCGGUCCAAUUCUAGAGUAUAUCACCGAUACUUUCUUUUAGAUGCAGAUAUGCAGUCCCUGCAUUGGGAACCUUCAAAGAAGGACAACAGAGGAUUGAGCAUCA: 0.609 ratio
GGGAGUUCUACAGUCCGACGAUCCAUCGGGUCACUCCUAUUACCAAGUAGCUGGAAUUGUGAAGGUCGGAGUAGUUGGAGUUUUAGCUUUGAUUCCUGAUUUGUUUGUAUUACUAUCCCUGUGUAUAAAUUAUUGACCAUGUUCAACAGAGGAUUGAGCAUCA: 0.717 ratio
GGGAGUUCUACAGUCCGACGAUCAAAUAUACUUCAUGCCAUGGACCCCAUAUCGCACCGAUACUUUGAUAGAAUAUGCUUCCUUAGAGGACUUCCAAAACGGACGCCAGCAAACAACAUAUAAACUCCCAAAUCGAGUGGACGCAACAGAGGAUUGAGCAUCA: 1.12 ratio
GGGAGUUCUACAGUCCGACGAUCAAAUUUAUUUCAUGCCCUGGACUCCCUACCGUACCGACACUUUAAUAGAGUACGCUUCUUUGGAAGAUUUCCAGAACAGUCGCCAAACAACAACAUACAAACUUCCAAAUCGAGUAGAUGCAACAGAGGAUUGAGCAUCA: 0.856 ratio
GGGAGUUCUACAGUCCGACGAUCGUUGUGACCCAUUUAACAUCCACAAAAAACUAGCCAAAAAGAAUUUGCAUGUAAUUGACUUAGAUGAUGCCACUUUUCUGAGUGCGAAAUUUGGUAGACAGCUUGUGCCCGGUUGGAAGCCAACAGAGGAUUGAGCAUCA: 1.39 ratio
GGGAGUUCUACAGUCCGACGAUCGUUUUUAGAUUUCAUCUCUUUAAUUAGUAUGAGGGUUUGAAAUACUGAAUAGUUCCACCACAAAUUAACACUGGCAGGUGUUCCAAGAUAGCACUAUAGUCAUUUCAAAUACCCUUAUGGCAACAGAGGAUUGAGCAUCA: 1.42 ratio
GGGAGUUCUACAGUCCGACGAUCGUGACUUUGGGCGUCCGCACAGCCUGGGGAGGGUGACUGUGUAGUGUAGUCCCGGCAGGUUAGCUUUCCUUCUUUGGGUUGUAGGCCUGUGCUGCAAACAUGAUCCGCCAGAUCAUCGGUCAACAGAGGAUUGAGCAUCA: 0.455 ratio
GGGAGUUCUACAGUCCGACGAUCAUGACAAUGAAAAGAGCCAAGCAGUAGCAUUUUGUUUUUUUUUAUAAAUGUAAAAAUUAGAUUCACUUUGUUUCCUAUUCAGUUUUAAAAAUAAAAAUACCUCAGUGCUGUGUUUCCCAGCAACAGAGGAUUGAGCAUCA: 0.622 ratio
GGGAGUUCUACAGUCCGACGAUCAGCAACUCUUACAGUCAGUCUUAGGUGUUACCAAGAACAGAUCUCAAUUGUAAGAGUUGUCAGCACAGCUUUUCUUUUUUCUUUUUGUUUUUGUUAUUGUUUUUUUUUUCUUUUUUUAAACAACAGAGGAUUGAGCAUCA: 2.03 ratio
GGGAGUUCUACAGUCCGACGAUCACUGUUGUUAAGCACUGUGUUCCAGACCGUGGCUGACGUAGUGUAACCUAGGUGAUCUAGUUUCAUUCGGAUGGACUCGGGGUGGGGGAGCAGGGCAGCCCCGCCCCUUCCCGUGUCCCGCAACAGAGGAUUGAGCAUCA: 0.527 ratio
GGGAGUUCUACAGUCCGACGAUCAAACUAUACUUAUACUGUCUUACAGCAUUUGUGAAUAUUUUAUGAGUCAACAUGUAAAGCUAGAGUCUUUGUUAAAUCAGUGAGAUUAAUGUAAAUAAAAUGUUUUUAUUUGCUUUGAAACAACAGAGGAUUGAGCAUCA: 0.213 ratio

Excerpt of the above (block 4):
TTAGGGTTCGGTTTCGGTTAGTGCTAG: 8.4 z-score
GACGGACTGGACCATCGGGACGTGCTA: -0.772 z-score
TCATCCTTTGCTTTCTCACTGTGCTAG: 1.34 z-score
TTAGATATCACTCTCGATTAGTGCTAG: 3.34 z-score
TGGCTTTGCCTTTTGCTTTAGTGCTAG: -0.207 z-score
GACGGTTTAGGTATCGGGACGTGCTAG: 2.14 z-score
TCACGTCTCTATCAAAAACTGTGCTAG: 1.01 z-score
GCAACATTCACCATGGCTAGGTGCTAG: 0.02 z-score
TTAGGACTGCTTTTCCTGTAGTGCTAG: -0.276 z-score
